# Experimental data gathered from unrelated publications.
# Each line is one published result; not all experiments were run side by side. “And” joins repeats or separate records; there may be more than shown.
SMILES,system,setting,quantity,result
CCC1=[N+]2N=C(/C=C/C=C/c3ccccc3)C(=O)O[B-]2(c2ccccc2)Oc2cc(N(CC)CC)ccc21 (stereo not shown),toluene,,absorption maximum,513 nm
CC(C)(C)NC(=O)C1CCN(Cc2cccc(/N=N/c3ccc(F)cc3F)c2)CC1,DMSO,"25 µM, 25 °C","absorption maximum, cis isomer",432 nm
CCCCN1C(=O)c2cccc3c(NCCCCCCCCCCN4CCOCC4)ccc(c23)C1=O,DMSO,,absorption maximum,444 nm
COc1ccc2nc(-c3ccc(N(C)C)cc3)sc2c1,PBS,free dye,absorption maximum wavelength,301 nm
CC(C)(C)NC(=O)C1CCN(Cc2cccc(N=Nc3ccc(F)cc3)c2)CC1,DMSO,"25 µM, 25 °C","absorption maximum, trans isomer",330 nm
CCCCN1C(=O)c2cccc3c(NCCCCCCN4CCOCC4)ccc(c23)C1=O,dichloromethane,,absorption maximum,427 nm
COc1ccc2c(c1)O[B-]1(c3ccccc3)OC(=O)C(c3ccccc3)=N[N+]1=C2 (stereo not shown),toluene,,absorption maximum,427 nm
CCCCN1C(=O)c2cccc3c(NCCCN4CCOCC4)ccc(c23)C1=O,DMSO,,absorption maximum,443 nm
C=Cc1ccccc1[B-]12OC(=O)C(c3ccccc3)=N[N+]1=Cc1ccc(N(CC)CC)cc1O2 (stereo not shown),toluene,,absorption maximum,470 nm
CC1(C)C(=CC=C2CCCC(C=CC3=[N+](CCC[N+](C)(C)C)c4ccc(S(=O)(=O)O)cc4C3(C)C)=C2SCCOCCOCCC(=O)O)N(CCC[N+](C)(C)C)c2ccc(S(=O)(=O)O)cc21,HEPES buffer with FBS,"pH 7.4, 50 mM HEPES, 30% FBS",absorption maximum wavelength,778 nm
CCC1=[N+]2N=C(/C=C/c3ccccc3)C(=O)O[B-]2(c2ccccc2)Oc2cc(N(CC)CC)ccc21 (stereo not shown),toluene,,absorption maximum,497 nm
CCCCN1C(=O)c2cccc3c(NCCCCN4CCOCC4)ccc(c23)C1=O,chloroform,,absorption maximum,429 nm
C=C[C@]1(C)C[C@@H](OC(=O)CSc2ccc(NC(=O)c3ccco3)cc2)[C@]2(C)[C@H](C)CC[C@]3(CCC(=O)[C@H]32)[C@@H](C)[C@@H]1O,"M. gallisepticum-infected chickens, plasma","intramuscular, 40 mg/kg single dose",absorption half-life,7.46 min and 7.2 min
CCCCN1C(=O)c2cccc3c(NCCCCCN4CCOCC4)ccc(c23)C1=O,DMSO,,absorption maximum,445 nm
CCN(CC)c1ccc2c(c1)O[B-]1(c3ccc(C)cc3)OC(=O)C(c3ccccc3)=N[N+]1=C2 (stereo not shown),toluene,,absorption maximum,471 nm
CC(C)(C)NC(=O)C1CCN(Cc2cccc(/N=N/c3ccc(F)c(F)c3F)c2)CC1,DMSO,"25 µM, 25 °C","absorption maximum, cis isomer",431 nm

# Some of these lines once more:
SMILES,system,setting,quantity,result
CC1(C)C(=CC=C2CCCC(C=CC3=[N+](CCC[N+](C)(C)C)c4ccc(S(=O)(=O)O)cc4C3(C)C)=C2SCCOCCOCCC(=O)O)N(CCC[N+](C)(C)C)c2ccc(S(=O)(=O)O)cc21,HEPES buffer with FBS,"pH 7.4, 50 mM HEPES, 30% FBS",absorption maximum wavelength,778 nm
CCC1=[N+]2N=C(/C=C/c3ccccc3)C(=O)O[B-]2(c2ccccc2)Oc2cc(N(CC)CC)ccc21 (stereo not shown),toluene,,absorption maximum,497 nm
